Results from different studies.
Numbers after ± are the reported error.

C[C@H](Cn1cnc2c(N)ncnc21)OCP(=O)(O)O
inhibition (human alphaherpesvirus 2; virus production, plaque reduction; human monocytes/macrophages; 500 µg/mL, 6 days): 100%

O=C(O[C@@H]1Cc2c(O)cc(O)cc2O[C@@H]1c1cc(O)c(=O)c2c(O)c(O)cc([C@H]3Oc4cc(O)cc(O)c4C[C@H]3OC(=O)c3cc(O)c(O)c(O)c3)c2c1)c1cc(O)c(O)c(O)c1
IC50 (influenza virus; viral replication; MDCK; 72 h): > 10 µM

CC(=O)C[C@@H](c1ccccc1)c1c(O)c2ccc(O)cc2oc1=O
Kss (UGT; refers to: 4-glucuronide; human liver microsomes; second binding site): 2850 µM

CCCNc1nccnc1C(=O)O
IC50 (Mycobacterium tuberculosis variant bovis BCG; microbial growth; ATCC35734 BCG; 5 days): 200 µM

COc1cc(/C=C(\C#N)C(=O)c2ccc(O)c(O)c2)cc(I)c1O
efficacy (HEK293 expressing MOR; morphine-induced cAMP overshoot, HTRF cAMP; 1 µM, added: NKH 477 25 nM; baseline: morphine control): 67%

CCC(=O)Nc1nccnc1C(=O)O
IC50 (Mycobacterium tuberculosis variant bovis BCG; microbial growth; ATCC35734 BCG; 5 days): 1500 µM

N#Cc1ccc(-c2ccc(-c3cccs3)o2)cc1F
mutant frequency (Salmonella enterica; TA1535; 20 µM, 48 h, added: sodium azide after pre-exposure; baseline: sodium azide alone): 21%

Br.CN=c1nc(-c2ccccc2)n(-c2ccccc2)s1
efficacy (HEK293 expressing MOR; morphine-induced cAMP overshoot, HTRF cAMP; 1 µM, added: NKH 477 25 nM; baseline: morphine control): 85%

N=C(N)c1ccc(-c2ccc(-c3ccco3)o2)cc1F
mutant frequency (Salmonella enterica; TA1535; 10 µM, 48 h, added: sodium azide after pre-exposure; baseline: sodium azide alone): 92%

CNC(C)Cc1ccc2c(c1)OCO2 (racemic)
mood rating (visual analog scale, refers to: Sedated; human; oral, 1.5 mg/kg, mean over session, unit not given; baseline: pre-dose baseline): 5

c1ccc(CN2CCC3(CCCc4ccccc43)CC2)cc1
IC50 (HEK293 expressing MOR; cAMP overshoot, inhibitor, HTRF cAMP; added: morphine then naloxone): 14.6 µM

N#Cc1ccc(-c2ccc(-c3ccco3)o2)cc1F
mutant frequency (Salmonella enterica; TA1535; 20 µM, 48 h, added: sodium azide after pre-exposure; baseline: sodium azide alone): 36%

CCCCCc1cc(O)c2c(c1)OC(C)(C)[C@@H]1CCC(C)=C[C@@H]21
ED50 (drug discrimination; C57BL/6J mice, both sexes; trained vs vehicle): 1.76 to 2.14 mg/kg

O=C(O)c1nccnc1NCc1ccccc1
IC50 (Mycobacterium tuberculosis variant bovis BCG; microbial growth; ATCC35734 BCG; 5 days): 200 µM

CC(C)c1ccc2c(c1)CC[C@H]1[C@](C)(CN)CCC[C@]21C
IC50 (1205Lu; cell growth or viability, MTS; 72 h): 1.35 µM

N=C(N)c1ccc(-c2ccc(-c3cccs3)o2)c(F)c1
mutant frequency (Salmonella enterica; TA1535; 10 µM, 48 h, added: sodium azide after pre-exposure; baseline: sodium azide alone): 72%

O=C(CNC(=O)c1cccc2ccccc12)Nc1ccccc1Oc1ccccc1
GI50 (NCI60 panel, 60 cell lines; median over cell lines): ~0.33 µM

neuropeptide Y
cumulative testosterone release (rat, plasma; intratesticular, 5 µg/kg, added: hCG): 8.8 ± 1.8 ng/mL

CP(=O)(O)CCC(N)C(=O)O (stereo not shown)
herbicidal activity (Eleusine indica; 125 g/ha, 13 days, ELEIN, post-emergence spray; baseline: untreated (0%), complete kill (100%)): 100%

CC(C)(NC(=O)O[C@@H]1CN2CCC1CC2)c1csc(-c2ccc(F)cc2)n1
change in brain volume (MRI; GD3 adults, whole brain; dose not given, 1 year; baseline: baseline): 307 ± 4250 mm³

N#Cc1ccc(-c2ccc(-c3cccs3)o2)c(F)c1
inhibition (Salmonella enterica; sodium azide mutagenicity; TA1535; 20 µM, 48 h, added: sodium azide 2 µg/plate after pre-exposure): 77%

O=C(O)c1cnccn1
IC50 (Mycobacterium tuberculosis variant bovis BCG; microbial growth; ATCC35734 BCG; 5 days): 1000 µM

CC(=O)N1CCCC1C(=O)NC(CO)C(O)c1ccc([N+](=O)[O-])cc1 (stereo not shown)
Kd (Escherichia coli 70S ribosome; binding, fluorescence polarization; added: BODIPY-erythromycin 4 nM): 10 ± 1.5 µM

CCCCCCCCCCCCCCCCCCOCC(COP(=O)([O-])OCC[N+](C)(C)C)OC (stereo not shown)
efficacy (HEK293 expressing MOR; morphine-induced cAMP overshoot, HTRF cAMP; 1 µM, added: NKH 477 25 nM; baseline: morphine control): 144%

N#Cc1ccc(-c2ccc(-c3ccco3)o2)c(F)c1
mutant frequency (Salmonella enterica; TA1535; 20 µM, 48 h, added: sodium azide after pre-exposure; baseline: sodium azide alone): 20%

O=c1c(O)c(-c2cc(O)c(O)c(O)c2)oc2cc(O)cc(O)c12
IC50 (influenza virus; viral replication; MDCK; 72 h): > 10 µM

N#Cc1ccc(-c2ccc(-c3cccs3)s2)cc1F
mutant frequency (Salmonella enterica; TA1535; 10 µM, 48 h, added: sodium azide after pre-exposure; baseline: sodium azide alone): 17%

OC(CNc1ccccc1)Cn1c2ccc(Br)cc2c2cc(Br)ccc21 (stereo not shown)
neurogenesis (middle-aged rat, dentate gyrus; dose not given): no effect

Repeated from above:
CC(=O)N1CCCC1C(=O)NC(CO)C(O)c1ccc([N+](=O)[O-])cc1 (stereo not shown)
Kd (Escherichia coli 70S ribosome; binding, fluorescence polarization; added: BODIPY-erythromycin 4 nM): 10 ± 1.5 µM

CCCCCCCCCCCCCCCCCCOCC(COP(=O)([O-])OCC[N+](C)(C)C)OC (stereo not shown)
efficacy (HEK293 expressing MOR; morphine-induced cAMP overshoot, HTRF cAMP; 1 µM, added: NKH 477 25 nM; baseline: morphine control): 144%
